Assay results pooled from the literature.
Protocols differ between the studies behind these lines.
Route: oral

Compound = CS(=O)(=O)n1cc2c(n1)CN([C@H]1CO[C@H](c3cc(F)ccc3F)[C@@H](N)C1)C2; system = male human, plasma; setting = 5 mg, single dose, fasted, healthy volunteers; AUC(0-t) = 4.1 µM·h
Compound = CS(=O)(=O)n1cc2c(n1)CN([C@H]1CO[C@H](c3cc(F)ccc3F)[C@@H](N)C1)C2; system = male human, plasma; setting = 50 mg, single dose, fasted; AUC(0-t) = 48.7 µM·h
Compound = CCCOc1ccc([C@H]2CNC(=O)N2c2ccc3[nH]cnc3c2)cc1; system = human, plasma; setting = 30 mg, single dose, fasted; AUC(0-t) = 168 ng·h/mL
Compound = CC(C)(Sc1ccncc1-c1ccc(C#N)c2ccccc12)C(=O)O; system = male human, plasma; setting = 2.5 mg, single dose, fasted; AUC(0-t) = 23.2 ng·h/mL
Compound = CCOc1ccc(Cc2cc([C@@H]3S[C@H](CO)[C@@H](O)[C@H](O)[C@H]3O)c(OC)cc2C)cc1; system = human, plasma; setting = 3 mg, single dose, fasted, healthy volunteers; AUC(0-t) = 973 ng·h/mL
Compound = O=C(NCCN1CCCC1)c1cc(-c2ccc(CN3CCOCC3)cc2)nc2ccc(F)cc12; system = human, blood; setting = 50 mg, single dose, whole blood; AUC(0-t) = 475 ng·h/mL
Compound = O=C(c1nc2n(n1)[C@H](c1ccccc1)C[C@@H]2F)C1CC1; system = human, plasma; setting = 5 mg, single dose, fasted, healthy volunteers; AUC(0-t) = 831 ng·h/mL
Compound = CCCCCN1C[C@H](O)[C@@H](O)[C@H](O)[C@@H]1CO; system = human, plasma; setting = 10 mg, single dose, fasted, healthy volunteers; AUC(0-t) = 282 ng·h/mL

Some of these lines once more:
Compound = CCOc1ccc(Cc2cc([C@@H]3S[C@H](CO)[C@@H](O)[C@H](O)[C@H]3O)c(OC)cc2C)cc1; system = human, plasma; setting = 3 mg, single dose, fasted, healthy volunteers; AUC(0-t) = 973 ng·h/mL
